Published values gathered from unrelated publications.
Parts stem from different laboratories: compare values within a part only.

Set 1
Target: Centromere-binding protein 1, full length, His-tagged (CBF1, Saccharomyces cerevisiae, UniProt P17106, residues 1-351)
Sequence of UniProt P17106 (whole entry, looked up): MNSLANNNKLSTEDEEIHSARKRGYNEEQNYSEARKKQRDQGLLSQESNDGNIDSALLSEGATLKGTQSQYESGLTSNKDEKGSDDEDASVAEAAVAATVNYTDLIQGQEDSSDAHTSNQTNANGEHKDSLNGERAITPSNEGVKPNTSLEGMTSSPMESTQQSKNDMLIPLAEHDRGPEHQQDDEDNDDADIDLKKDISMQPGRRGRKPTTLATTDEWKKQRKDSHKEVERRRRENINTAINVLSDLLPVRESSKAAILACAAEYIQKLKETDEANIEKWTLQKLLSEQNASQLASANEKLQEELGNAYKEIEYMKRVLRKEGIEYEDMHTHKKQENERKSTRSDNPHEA
Technique: competition protein-binding microarray
Form: double-stranded DNA, one strand shown
Matrix: in vitro
Tested at: 2 µM
Setting: whole 60-bp probe, lowest competitor level
Added: Pho4 competitor, 0.05 µM
Direction: higher = stronger binding
Constant ends, left off below: … GTCTTGATTCGCTTGACGCTGCTG
`AAAGCGGTAATTTGCCGCGTGGGTGCAGATATCTAT` gave a fluorescence intensity of 88.5 a.u.
`CTTCTGTAAATTTGGACGGTGGGTGGACGCGCCCCG` has a fluorescence intensity of 65.1 a.u.
`CTTCTGTAAATTTGAGTTGTGGGTGGACGCGCCCCG` has a fluorescence intensity of 81.1 a.u.
With `CTTCTGTAAATTTGTCACAAAACTTGACGCGCCCCG` the fluorescence intensity was 102 a.u.
`AGCTACCGATTCCATCACGCTTCCTGGTACGGGTGC` gave a fluorescence intensity of 88.9 a.u.
`TTCAGGGTTGTTCATCACAGCAATAAAAGTATCAAC` has a fluorescence intensity of 76.7 a.u.
With `CGGGAGTGTTTTTTTTCCGTGCGGATTTTCTTAGCT` the fluorescence intensity was 76.2 a.u.
For `TAGGAACTCCTTTGCTGCGTGGCCGATTCCTCTGTA`, the fluorescence intensity was 69.4 a.u.

Set 2
Target: PABPC1L2, full length, GST fusion (mouse, UniProt A0ABA7IW68)
Technique: RNAcompete
Form: RNA
Matrix: in vitro
Tested at: 20 nM
Setting: 7-mer, probes averaged, single round
Baseline: mean of 7-mers
Direction: higher = stronger binding
Residues (chain): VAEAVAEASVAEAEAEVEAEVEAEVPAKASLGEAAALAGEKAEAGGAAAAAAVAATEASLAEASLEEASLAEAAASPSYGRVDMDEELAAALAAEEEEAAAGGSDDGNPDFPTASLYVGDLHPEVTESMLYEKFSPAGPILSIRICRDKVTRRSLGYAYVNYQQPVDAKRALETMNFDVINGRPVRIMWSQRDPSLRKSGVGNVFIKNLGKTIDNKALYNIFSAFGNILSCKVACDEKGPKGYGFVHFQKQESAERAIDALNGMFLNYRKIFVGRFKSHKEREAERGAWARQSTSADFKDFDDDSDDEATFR
`UAAAUGA` has a 7-mer Z-score of 0.62.
`GAAUUUA` gave a 7-mer Z-score of 0.0841.
For `GGACAAG`, the 7-mer Z-score was 0.311.
`CUGUAAA` has a 7-mer Z-score of 0.974.
The 7-mer Z-score of `GCUUUUG` is reported as -0.237.
For `GCUUAUA`, the 7-mer Z-score was -0.229.
The 7-mer Z-score of `AUAGCAU` is reported as 0.0189.
`GUCCUCU` has a 7-mer Z-score of -0.333.

Set 3
Target: Fragile X messenger ribonucleoprotein 1, C-terminal low-complexity region (Fmr1, Mus musculus, UniProt P35922)
Technique: RNA Bind-n-Seq
Form: RNA
Matrix: in vitro
Tested at: 200 nM
Setting: whole 134-nt RNA, ends assumed
Added: 150 mM LiCl
Baseline: input library
Direction: higher = stronger binding
All molecules: 7-deaza-guanosine replaces G
Constant ends, left off below: GGGAGUUCUACAGUCCGACGAUC … UGGAAUUCUCGGGUGUCAAGG
`GAAAUUUGGUUAUGUGGAUUUUGAAUCUGCUGAAGACCUGGAGAAAGCGUUGGAACUCACUGGUUUGAAAGUCUUUGGCAAUGAAAUUAA` has a log2 enrichment of -3.98.
With `GUCCUGUGCUACACAUCGUAUGUACCGAAUCGGGGUUUUUUUGGGGAGGGGAAAGGGGAAAGUAUUAUGUUACGCCGUUCGGAUCUGCAC` the log2 enrichment was 0.344.
`GCAGGAAGUAAAAACAAAUGGAAAUGCUUCGGAUAGUGGCAGGGGUGGGGGUUGCUAAGGAAAGGGUGGGAUGGGAGUGGGUGAAGAGUU` gave a log2 enrichment of 1.42.
`AAGUCCUGUGCUACACAUCGUAUGUACCGAAUCGGGAAAAAGGGUUUUUGGGUGGGAAAGUAUUAUGUUACGCCGUUCGGAUCUGCACUU` has a log2 enrichment of -1.66.
`GCGGACCGAGAAAGUCGUUACGAGGAAGAAGAAGAACAAAGUCGAAGUAUGAGCCGGAAGAGGAAGGCAUCUGUGCACAGUUCGGGCCGU` gave a log2 enrichment of 1.79.
`GCAGGAAGUAAAAACAAAUGGAAAUGCUUCGGAUAGUGGCAGGGGUGGGGGUUGCUAAGGAAAGGGUGGGAUGGGAGUGGGUAAAUAGUU` gave a log2 enrichment of 1.24.
For `CAAGUCCUGUGCUACACAUCGUAUGUACCGAAUCGGGGAGGGGAGGGGUUUGGGGAAAGUAUUAUGUUACGCCGUUCGGAUCUGCACUUC`, the log2 enrichment was -0.044.
The log2 enrichment of `CACAGACAACACGCACCCACACAGACACAGAGGGAAGGGGUUGGGAUGGGGAAAGGGUGCACAGCAGGGCGGGGUAGGACCCCAGCCCCU` is reported as 0.327.

Single results of other studies
`CC(C)c1ccc2c(c1)c(SC(C)(C)C)c(CC(C)(C)C(=O)O)n2Cc1ccc(Cl)cc1` gave an inhibition of -0.117% (Sarcocystis neurona; parasite growth; 10 µM, secondary screen).
